Measurements gathered from unrelated publications.
Numbered parts are unrelated; each lists some results of a single study.

Study 1 — technique: protein binding microarray; form: double-stranded DNA, one strand shown; medium: in vitro; concentration: not given; relative to: not given; direction: higher = stronger binding
Target: Histone acetyltransferase KAT6A, both winged helices, GST fusion (KAT6A, Homo sapiens, UniProt Q92794, residues 1-181)
Notes: 8-mer, flanks averaged, mean of 2 arrays, mostly near background
Target sequence (chain): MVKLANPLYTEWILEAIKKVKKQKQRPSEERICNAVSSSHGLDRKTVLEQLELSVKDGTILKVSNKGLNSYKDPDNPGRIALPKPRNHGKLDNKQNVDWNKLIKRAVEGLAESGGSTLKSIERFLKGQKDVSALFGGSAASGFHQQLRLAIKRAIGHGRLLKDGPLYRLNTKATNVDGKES
With `AGAATGTA` the E-score was -0.0293.
The E-score of `GAATCAAA` is reported as -0.0156.
For `TCCGTCGA`, the E-score was 0.211.
The E-score of `AGGGGTCG` is reported as -0.195.
With `ACGAGCGC` the E-score was 0.293.

Study 2 — technique: aptamer microarray, sandwich; form: DNA with 2'F-ANA; medium: in vitro; concentration: 200 nM; added: Cy3 exosite-II aptamer, 400 nM; direction: higher = stronger binding
Target: Prothrombin, mature alpha-thrombin (F2, Homo sapiens, UniProt P00734)
Notes: whole 15-mer aptamer, many near background
`GGTTGGTGTGGTTGG (2'F-ANA at 1 2 5 6 7 9 12 13 14 15)`: “mean fluorescence intensity” 47.8 a.u.
`GGTTGGTGTGGTTGG (2'F-ANA at 1 2 3 5 7 9 10 13)`: “mean fluorescence intensity” 43.1 a.u.
`GGTTGGTGTGGTTGG (2'F-ANA at 2 3 4 6 7 10 14)` — result for “mean fluorescence intensity”: 174 a.u.
Under “mean fluorescence intensity”, `GGTTGGTGTGGTTGG (2'F-ANA at 1 6 7 9 11 13 14)` is recorded as 51 a.u.

Study 3 — technique: RNA Bind-n-Seq; form: RNA; medium: in vitro; concentration: 200 nM; notes: whole 134-nt RNA, ends assumed; added: 150 mM KCl; relative to: input library; direction: higher = stronger binding
Target: Ras GTPase-activating protein-binding protein 1, full length (G3BP1, Homo sapiens, UniProt Q13283)
Sequence of UniProt Q13283 (whole entry, looked up): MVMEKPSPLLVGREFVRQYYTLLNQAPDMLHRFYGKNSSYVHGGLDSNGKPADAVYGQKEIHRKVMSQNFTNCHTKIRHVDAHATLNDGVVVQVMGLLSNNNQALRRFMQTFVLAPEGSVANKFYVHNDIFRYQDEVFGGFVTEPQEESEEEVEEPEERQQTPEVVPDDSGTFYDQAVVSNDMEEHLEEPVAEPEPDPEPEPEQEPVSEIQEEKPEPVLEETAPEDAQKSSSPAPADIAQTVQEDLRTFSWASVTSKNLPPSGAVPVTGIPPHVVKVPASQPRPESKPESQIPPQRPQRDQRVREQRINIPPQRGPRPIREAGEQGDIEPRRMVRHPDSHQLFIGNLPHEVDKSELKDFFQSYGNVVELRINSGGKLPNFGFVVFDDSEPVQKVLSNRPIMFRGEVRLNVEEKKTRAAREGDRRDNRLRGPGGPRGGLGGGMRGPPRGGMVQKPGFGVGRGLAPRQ
Constant ends, left off below: GGGAGUUCUACAGUCCGACGAUC … UGGAAUUCUCGGGUGUCAAGG
With `UAACUUUAGAGGAGGAUCUGAUGGAUAUGGCAGUGGACGUGGAUUUGGGGAUGGCUAUAAUGGGUAUGGCGGAGGACCUGGAGGUGGCAA` the log2 enrichment was 0.305.
`CAAGUCCUGUGCUACACAUCGUAUGUACCGAAUCGGGAAAAAGGGUUUGGGAGGGAAAGUAUUAUGUUACGCCGUUCGGAUCUGCACUUC` gave a log2 enrichment of 0.723.
`UGUUGAAAUGGGACAGUUGGCAGCGGCUCUGAUGAGCCCGAGAAGAGGCCUGCCCUUGGGUGCGGAGUCUCCCUCCGCACGAUGCUCCCA` gave a log2 enrichment of -0.767.
`CUGUGCUACACAUCGUAUGUACCGAAUCGGGGAAAAAAAGGAAAAAAAGGAAAAAAAGGGGAAAGUAUUAUGUUACGCCGUUCGGAUCUG` gave a log2 enrichment of -0.803.
The log2 enrichment of `GUCCUGUGCUACACAUCGUAUGUACCGAAUCGGAAAAAAGGGAAAAAAGGAAAAAAGGGAAAGUAUUAUGUUACGCCGUUCGGAUCUGCA` is reported as -0.802.

Single results of other studies
The fold induction of `PhoQ, residues 284 288 289 292 302 303 NLALSC` is reported as 2.67 (PhoP, residues 12 14 15 18 19 SQCLL (Escherichia coli, UniProt P23836); Sort-seq, item: YFP reporter; E. coli; PhoQ-PhoP variant library, added: 10 µM Mg2+; relative to: high Mg2+ state, higher = stronger signaling).

Some of these lines once more (study 1):
With `AGAATGTA` the E-score was -0.0293.
With `ACGAGCGC` the E-score was 0.293.
The E-score of `AGGGGTCG` is reported as -0.195.
